Measurements from different studies.
Every numbered part comes from another study and shows a few of its results, in no order.

Sample 1 — technique: protein-binding microarray; form: double-stranded DNA, one strand shown; sample: in vitro; tested at: 940 nM top; notes: 60-bp whole probe; with: salmon DNA 0.4 mg/ml; baseline: random background probes; reading: higher = stronger binding; all sequences stand within: GCCTAGCAC … GTCTTGATTCGCTTGACGCTGCTG
Target: Interferon regulatory factor 5, full length, phosphomimetic (IRF5, Homo sapiens, UniProt Q13568-2, residues 1-514, S451D/S453D/S456D/S462D)
Strand	fitted relative affinity [z-score]
TTAAATATCAGACTGGATTAGTGCTAG	-0.436
TTAGATATCGGGACTGGTTTAGTGCTA	0.229
TTAGGTTCCGTTTTCCTTTAGTGCTAG	1.95
TCACATTGCTGCCCTCAGACTGTGCTA	0.269
GACGAACTGACTATCGAGACGTGCTAG	-0.156
TTAGGATTCGGACTGGGTTAGTGCTAG	-0.0722
TCATCTTATCCTATCAGACTGTGCTAG	0.73
GACGATATCGGTCTCGGGACGTGCTAG	1.33

Sample 2 — technique: RNA Bind-n-Seq; form: RNA; sample: in vitro; tested at: 1 µM; notes: whole 134-nt RNA, ends assumed; with: 150 mM KCl; baseline: input library; reading: higher = stronger binding
Target: Ras GTPase-activating protein-binding protein 1, RRM domain (G3BP1, Homo sapiens, UniProt Q13283)
Chain of UniProt Q13283 (whole entry, looked up): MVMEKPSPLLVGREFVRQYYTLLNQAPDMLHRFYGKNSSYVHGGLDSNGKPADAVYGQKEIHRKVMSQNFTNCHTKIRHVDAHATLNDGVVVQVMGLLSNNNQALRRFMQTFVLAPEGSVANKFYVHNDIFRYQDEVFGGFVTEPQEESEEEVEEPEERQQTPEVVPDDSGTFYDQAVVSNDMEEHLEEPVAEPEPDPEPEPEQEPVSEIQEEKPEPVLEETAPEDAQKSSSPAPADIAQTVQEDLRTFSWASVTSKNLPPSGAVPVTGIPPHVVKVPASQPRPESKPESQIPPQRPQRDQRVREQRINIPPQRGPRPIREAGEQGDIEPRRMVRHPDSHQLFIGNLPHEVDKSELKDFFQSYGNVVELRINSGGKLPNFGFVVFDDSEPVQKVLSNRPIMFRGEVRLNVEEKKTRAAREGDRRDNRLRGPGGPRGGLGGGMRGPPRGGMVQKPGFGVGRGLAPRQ
Strand	log2 enrichment
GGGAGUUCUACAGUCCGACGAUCAGUCCUGUGCUACACAUCGUAUGUACCGAAUCAAAUUUAAACCCCCAAACCCCCAAAAAAGUAUUAUGUUACGCCGUUCGGAUCUGCACUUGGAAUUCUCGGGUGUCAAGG	-0.291
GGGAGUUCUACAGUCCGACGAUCCACAGACAACACGCACCCACACAGACACAGAGGCAAGGGGUUGGGAUGGGGACAGGGUGCACAGCAGGGCGGGGUAGGACCCCAGCCCCUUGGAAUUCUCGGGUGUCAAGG	0.0482
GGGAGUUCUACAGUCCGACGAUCAUGUUCUUGAAUACUUAGCAAACAUACCAGCAUCCCAAAGUCACCAAGAUAAACCCUCCUACUCCAACAUCACAUGAUCUUCUAAUUCUAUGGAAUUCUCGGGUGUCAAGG	-0.0878
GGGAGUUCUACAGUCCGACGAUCCCUCAAGUCCUGUGCUACACAUCGUAUGUACCGAAUCGGCGGGGCGGGCGGGAAAGUAUUAUGUUACGCCGUUCGGAUCUGCACUUCCAGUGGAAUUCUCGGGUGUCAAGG	0.182
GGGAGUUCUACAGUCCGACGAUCCUGUGCUACACAUCGUAUGUACCGAAUCAAACCCCCCCAAACCCCCCCAAAUUUUUUUAAAAAAGUAUUAUGUUACGCCGUUCGGAUCUGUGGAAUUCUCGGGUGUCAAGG	-0.598
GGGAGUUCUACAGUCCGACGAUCGCAGGAAGUAAAAAUAAAUGGAAAUGCUUCGGAUAGUGGCAGGGGUGGGGGUUGCUAAGGAAAGGGUGGGAUGGGAGUGGGUAAAGAGUUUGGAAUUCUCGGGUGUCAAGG	1.01
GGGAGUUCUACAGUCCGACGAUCUCGGAGGUGGAUUUUGUUUAUUUUUUUAGCUCAUUUCCAGGGGUGGGAAUUUUUUUUUAAUAUGUGUCAUGAAUAAAGUUGUUUUUGAAAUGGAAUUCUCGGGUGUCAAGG	2.2
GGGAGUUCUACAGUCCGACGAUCGCAGGAAGUAAAAACAAAUGGAAAUGCUUCGGAUAGUGGCAGGGGUGGGGGUUGCUAAGGAAAGGGUGGGAUGGGAGUAAAUAAAGAGUUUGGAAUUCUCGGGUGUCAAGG	1.14

Sample 3 — effect on: enzyme activity; mode: inhibitor; tested at: 20 µM; notes: hit confirmation
Target: Replicase polyprotein 1ab, main protease (rep, Severe acute respiratory syndrome coronavirus 2, UniProt P0DTD1)
SMILES	inhibition
C=CC(=O)N1CCN(C(=O)CNc2cc(I)c(Cl)cc2O)CC1	29.1%
O=C(/C=C/c1ccc(O)c2c1[C@@H](C(=O)O[C@H](Cc1ccc(O)c(O)c1)C(=O)O)[C@H](c1ccc(O)c(O)c1)O2)O[C@H](Cc1ccc(O)c(O)c1)C(=O)O	88%
COC(=O)CC[C@H](NC(=O)[C@H](CC(=O)OC)NC(=O)OCc1ccccc1)C(=O)N[C@H](C(=O)N[C@@H](CC(=O)OC)C(=O)CF)C(C)C	110%
c1ccc2sc(SN3CCOCC3)nc2c1	99.8%

Sample 4 — mode: inhibitor; tested at: 20 µM
Target: Replicase polyprotein 1ab, nsp13 helicase (rep, Severe acute respiratory syndrome coronavirus 2, UniProt P0DTD1)
SMILES	inhibition [%]
CCCCCCCCCCC(=O)O[C@H]1CC[C@H]2[C@@H]3CCC4=CC(=O)CC[C@]4(C)[C@H]3CC[C@]12C	4.51
O=C1c2ccccc2C(=O)C1c1ccc(Cl)cc1	4.96
COc1cc2c(c(OC)c1OC)-c1c(cc3c(c1OC)OCO3)C[C@H](C)[C@@](C)(O)C2	5.54
CC[N+](C)(C)c1cccc(O)c1	4.97
Cc1ccc(C(=O)c2ccc(CC(=O)O)n2C)cc1	5.89
CC(=O)Nc1cccc(-n2c(=O)n(C3CC3)c(=O)c3c(Nc4ccc(I)cc4F)n(C)c(=O)c(C)c32)c1	1.58
CSc1nc2cc(Cl)c(Oc3cccc(Cl)c3Cl)cc2[nH]1	6.2
COc1cc(N2CCC(O)CC2)ccc1Nc1cc(Nc2ccccc2S(=O)(=O)C(C)C)c2cc[nH]c2n1	4.35
CS(=O)(=O)N(Cc1ccco1)CC(O)Cn1c2ccccc2c2ccccc21 (stereo not drawn)	4.28
Nc1ccn([C@@H]2O[C@@](CO)(CCl)[C@@H](O)[C@H]2F)c(=O)n1	-0.31
COc1ccc(CC(=O)NC(N=C(NC#N)Nc2cccc3ncccc23)C(C)(C)C)cc1OC (stereo not drawn)	12.9
OCCN(CCO)c1nc(N2CCCCC2)c2nc(N(CCO)CCO)nc(N3CCCCC3)c2n1	2.66
NC[C@H]1CC[C@H](C(=O)O)CC1	0.8
CCOC(=O)c1ccc(N)cc1	-1.1
CC(=O)Oc1ccccc1C(=O)O	4.11
CC(/C=C/C(=O)NO)=C\[C@@H](C)C(=O)c1ccc(N(C)C)cc1	14.2
COc1cc2c3cc1Oc1cc(ccc1O)C[C@@H]1c4c(cc(OC)c(O)c4Oc4ccc(cc4)C[C@@H]3N(C)CC2)CC[N+]1(C)C	6.19
Cc1cc(/C=C/c2ccc3cc(N(C)C)ccc3[n+]2C)c(C)n1-c1ccccc1	-2.78
CCC(=O)O[C@]1(C(=O)CO)CC[C@H]2[C@@H]3CCC4=CC(=O)CC[C@]4(C)[C@H]3CC[C@@]21C	2.3
COc1ccccc1N1CCN(CCN(C(=O)C2CCCCC2)c2ccccn2)CC1	-1.92
CCCCC(=O)O[C@H]1CC[C@H]2[C@@H]3CCc4cc(O)ccc4[C@H]3CC[C@]12C	1.07
NC(=O)N[C@@H](CCC(=O)O)C(=O)O	4.37
COc1cc(NS(=O)(=O)c2ccc(N)cc2)nc(OC)n1	-2.34
CC(C)[N+]1(C)[C@@H]2CC[C@H]1C[C@@H](OC(=O)C(CO)c1ccccc1)C2 (stereo partly drawn)	7.54
CC(C)(C)[C@]1(O)CCN2C[C@H]3c4ccccc4CCc4cccc(c43)[C@@H]2C1	0.23

Sample 5 — cell line: HEK-293T/ACE2; tested at: concentration not given; time: 16 (unit not given); baseline: vehicle
Structure (SMILES)	viability
C[C@@H]1O[C@@H]1P(=O)(O)O	106%
O=C1CCCC(=O)C1C(=O)c1ccc(C(F)(F)F)cc1[N+](=O)[O-]	101%
COC(=O)C1=C(C)NC(C)=C(C(=O)OCC(C)C)C1c1ccccc1[N+](=O)[O-] (stereo not drawn)	101%
CC[C@@H]1/C=C(\C)C[C@H](C)C[C@H](OC)[C@H]2O[C@@](O)(C(=O)C(=O)N3CCCC[C@H]3C(=O)O[C@H](/C(C)=C/[C@@H]3CC[C@H](Cl)[C@H](OC)C3)[C@H](C)[C@@H](O)CC1=O)[C@H](C)C[C@@H]2OC	102%

Sample 6 — technique: RNA Bind-n-Seq; form: RNA; sample: in vitro; tested at: 365 nM; baseline: no-protein control; reading: higher = stronger binding
Target: RNA binding protein fox-1 homolog 2, RRM domain, GST-SBP tag (RBFOX2, Homo sapiens, UniProt O43251-10, residues 100-194)
Notes: natural RNA segment, single round, ends assumed
Target sequence (chain): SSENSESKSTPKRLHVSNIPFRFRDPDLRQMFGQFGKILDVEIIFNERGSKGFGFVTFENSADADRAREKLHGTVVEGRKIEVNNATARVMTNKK
Strand	RBNS enrichment (R)
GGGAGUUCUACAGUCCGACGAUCCUAACAUCCCUGCCUGGUAGCCAGACUAGCCCACUAAAGCUCCCCUGUAAAUGGGGGCUCCAUUAGUUCUGCUGCCGAGACUAAUAAAGAUUUGGUUGGCUCUAGCAGUAUGGAAUUCUCGGGUGCCAA	0.385
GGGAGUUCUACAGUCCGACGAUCACCUAGCAUGUUUUGUGGACGCAGUCAAGCUGCCACAGUCUGGUCAUCGUUGUUGUUGUGCUGACGUCUGGUCAUGUAUUAUUAGUGUGUCUCGUUCUCCACGGUGCUGGUGGAAUUCUCGGGUGCCAA	23
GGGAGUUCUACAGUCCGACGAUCCCCUGGAACUCCAGCGUAACCUGCCUUAGUGUUCCUUGUGUUGUCUGCUUUGAUGUAAAACCACAGGUGUGUCGAGGCAGAGGCUGCAGUCCUCUGUGCGCACAGUAGGCUGGAAUUCUCGGGUGCCAA	0.385
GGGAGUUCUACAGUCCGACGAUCUUCUAGGUUCCCUCCUCCCCCUACCCCAUCUCCUACCUCCACAGUACAGACUGUCCCCAACUUAACAGUGGUUCAACUUAAACCAUGUUUCAACUUUACAAUUGGUCUGUUGGAAUUCUCGGGUGCCAA	0.83
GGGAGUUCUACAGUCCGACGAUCCAUUUCUGUAUAGCAGGCGUGUGUGUGUGUGUCGAGGUUUUUUAUUUUUUGCUUAAUCAAACUCCAUUCCCAAAUGCACUCCAUCUCUGGCUCUGAGGGCGCUCCCUCCUUGGAAUUCUCGGGUGCCAA	0.397
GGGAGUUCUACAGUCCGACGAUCACAUCUCUUCCCUCCAUCUCCUUGUACCCUCUGGCUUACUGUCCUCUCUCUGGCGCACUUUCCUGAAGCCUCUUAUUAACUCCCAUCUCCAGAAGCACCUCAACAAUGUCUGGAAUUCUCGGGUGCCAA	1.19
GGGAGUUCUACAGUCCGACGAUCAUACAACUGGUAAAGGACGUUUUCUUGAGAGUUUUAACUAUAUGUAAACAUUGUAUAAUGAUAUGGAAUAAAAUGCACAUUGUAGGACAUUUUCUAAAUUUGGUGGUCCUUGGAAUUCUCGGGUGCCAA	0.232
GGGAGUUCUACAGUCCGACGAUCUGAAUCCCAAAGGCCACAUCCAAGACAGGCAAUAAUGAGCAGAGUUUACAGCUCCUUUAAUAAAAUGUGUCAGUAAUUUUAAGGUUUAUAGUUCCCUCAACACAAUUGCUUGGAAUUCUCGGGUGCCAA	0.392

Repeated from above (sample 3):
SMILES	inhibition
C=CC(=O)N1CCN(C(=O)CNc2cc(I)c(Cl)cc2O)CC1	29.1%
O=C(/C=C/c1ccc(O)c2c1[C@@H](C(=O)O[C@H](Cc1ccc(O)c(O)c1)C(=O)O)[C@H](c1ccc(O)c(O)c1)O2)O[C@H](Cc1ccc(O)c(O)c1)C(=O)O	88%
COC(=O)CC[C@H](NC(=O)[C@H](CC(=O)OC)NC(=O)OCc1ccccc1)C(=O)N[C@H](C(=O)N[C@@H](CC(=O)OC)C(=O)CF)C(C)C	110%
c1ccc2sc(SN3CCOCC3)nc2c1	99.8%
